Results pooled from the literature.
Each line is one published result; not all experiments were run side by side. ± marks the error that the study gave.
Cell line: HCT-116

Under “cells in pre-G1 phase”, `CSC(=NN=C(C)c1ccc(S(=O)(=O)N2CCC(C)CC2)cc1)N(C)C` is recorded as 11.5% (flow cytometry; 3.66 µM (IC50), 72 h).
`[BH3-][P+]1(c2ccccc2)CCCCC1` gave an IL-6 level of 4.6 ± 0.51 pg/mL (ELISA; IC50, 72 h).
The cell death of `CCS(=O)(=O)Oc1cc(/C=N/NC(=O)c2nc3ccccc3s2)ccc1OC` is reported as 35.5% (cell growth or viability, MTT; 100 µM, 48 h).
With `COc1ccc(NC(=O)c2c(Nc3ccccc3)sc(C(=O)N/N=C/c3ccc(OC)c(OC)c3)c2NC(C)=O)cc1` the viability was 48.1% (cell growth or viability, SRB; 1 µM, 48 h).
The cell growth of `O=C(Nc1nnc2c1c(-c1ccc(Cl)cc1)nc1sc(=Cc3ccco3)c(=O)n12)c1ccccc1` (mixture of isomers) is reported as 38.3% (SRB; 10 µM, NCI60 single-dose screen, colon cancer; baseline: untreated).
`CC(=NN=c1sc(C(=O)c2ccccc2)nn1-c1ccccc1)c1ccc(S(=O)(=O)N2CCC(C)CC2)cc1`: “cells in S phase” 33.1% (flow cytometry; 3.66 µM (IC50), 72 h).
With `Cc1ccc(CN2C3(NC(c4ccc(C)cc4)C24C(=O)Nc2ccccc24)C(=O)Nc2ccccc23)cc1` (stereo not drawn) the IC50 was 58900 nM (cell growth or viability, MTT; 48 h).
For `NC(=O)c1ccc(-c2ccccc2Cl)c2c3c([nH]c12)CCC(N)C3` (stereo not drawn), the IC50 was 2.77 nM (cell growth or viability; 96 h).
The GI50 of `O=C(CCl)c1ccccc1Nc1cccc(C(F)(F)F)c1` is reported as 1080 nM (cell growth or viability, CCK-8; 72 h).
For `[BH3-][P+]1(C2CCCCC2)CCCCC1`, the selectivity index was 1.8 (MTT; 72 h; baseline: IC50 HaCaT over IC50 HCT-116).
For `CCN1C(=O)CS/C1=N/N=C(\C)c1c(O)c2ccccc2oc1=O`, the selectivity index was greater than 9.26 (cell growth, MTT; baseline: IC50 BJ-1 over HCT-116).
The growth percent of `CN(C)CCN1CCN(c2ccc3nc(-c4ccc5nc(-c6ccc(C(F)(F)F)cc6)[nH]c5c4)[nH]c3c2)CC1` is reported as 23.8% (SRB; 10 µM, 48 h).
For `[BH3-][P@+]1(c2ccccc2)CC[C@H](O)CC1`, the selectivity index was 1 (MTT; 72 h; baseline: IC50 HaCaT over IC50 HCT-116).
`C/C(=N\NC(N)=S)c1c(O)c2ccccc2oc1=O` gave a selectivity index of greater than 5.62 (cell growth, MTT; baseline: IC50 BJ-1 over HCT-116).
For `O=[P@]1(c2ccccc2)CC[C@H](O)CC1`, the selectivity index was 1 (MTT; 72 h; baseline: IC50 HaCaT over IC50 HCT-116).
For `C/C(=N\N=c1/[nH]c(-c2ccccc2)cs1)c1c(O)c2ccccc2oc1=O`, the selectivity index was greater than 3.14 (cell growth, MTT; baseline: IC50 BJ-1 over HCT-116).
`CSC(=S)N/N=C(\C)c1ccc(S(=O)(=O)N2CCC(C)CC2)cc1`: “cells in G2/M phase” 29.2% (flow cytometry; 3.66 µM (IC50), 72 h).
The GI50 of `CCN(C(=O)c1cc(F)ccc1Oc1nncnc1N1CCC2(C1)CN([C@H](CCCN(C)CCOC)C(C)C)C2)C(C)C` is reported as greater than 10000 nM (cell growth or viability; 7 days).

For quick reference, copied from above:
With `COc1ccc(NC(=O)c2c(Nc3ccccc3)sc(C(=O)N/N=C/c3ccc(OC)c(OC)c3)c2NC(C)=O)cc1` the viability was 48.1% (cell growth or viability, SRB; 1 µM, 48 h).
The GI50 of `O=C(CCl)c1ccccc1Nc1cccc(C(F)(F)F)c1` is reported as 1080 nM (cell growth or viability, CCK-8; 72 h).
